Published values from different studies.
Parts stem from different laboratories: compare values within a part only. Substitutions count along the parent as printed.

Block 1
Target: CCND3, cyclin fold, Cln2 fusion (human)
Method: yeast growth competition, sequencing
Sample: yeast
Notes: weak parent motif
Reference: not given
Reading: higher = stronger binding
Quantity: normalised enrichment score
Parent: CDKN1B docking peptide (human); PSACRNLFGPVDH
Change = PSACRNLFGPDDH [V11D]; result = 0.185
Change = PSACRNFFGPVDH [L7F]; result = 0.149
Change = PSACRNTFGPVDH [L7T]; result = 0.0836
Change = PSACRNLFQPVDH [G9Q]; result = 0.137
Change = PSACRNLFGPVDT [H13T]; result = 0.079
Change = PSACRNLGGPVDH [F8G]; result = 0.0551
Change = PSAERNLFGPVDH [C4E]; result = 0.131
Change = PSACRNLFGPKDH [V11K]; result = 0.0994
Change = PSACRLLFGPVDH [N6L]; result = 0.129

Block 2
Target: ABI1, truncated, D143A, DHFR fusion (Arabidopsis thaliana)
Method: DHFR PCA, deep sequencing
Sample: yeast
Notes: methotrexate growth selection, single substitutions
Together with: (+)-ABA 0.39 µM
Reference: wild-type fitted maximum
Reading: higher = stronger binding
Quantity: relative binding score
Parent: PYL1, truncated, DHFR fusion (Arabidopsis thaliana); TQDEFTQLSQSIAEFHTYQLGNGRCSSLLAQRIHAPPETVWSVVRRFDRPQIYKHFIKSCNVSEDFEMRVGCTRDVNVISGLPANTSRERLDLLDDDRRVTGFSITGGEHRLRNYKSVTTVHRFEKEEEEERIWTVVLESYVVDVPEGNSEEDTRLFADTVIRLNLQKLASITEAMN; partner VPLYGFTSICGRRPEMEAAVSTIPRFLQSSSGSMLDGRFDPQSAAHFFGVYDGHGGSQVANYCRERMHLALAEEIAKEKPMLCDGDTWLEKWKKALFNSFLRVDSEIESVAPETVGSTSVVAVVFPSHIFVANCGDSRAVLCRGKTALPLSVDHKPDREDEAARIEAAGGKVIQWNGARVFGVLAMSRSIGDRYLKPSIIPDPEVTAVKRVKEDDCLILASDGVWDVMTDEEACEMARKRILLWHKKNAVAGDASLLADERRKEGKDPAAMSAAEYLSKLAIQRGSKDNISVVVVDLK
Change = P83L; result = 1.48%
Change = D144Y; result = 4.68%
Change = S80V; result = 1.33%
Change = R74S; result = -5.78%
Change = F103Y; result = 56%
Change = T106D; result = 13.5%
Change = S42N; result = 34.8%
Change = G23F; result = 8.55%

Block 3
Target: CREM, bZIP domain (human)
Method: DHFR protein complementation
Sample: yeast
Notes: single substitutions, most at no-binding floor
Reference: wild-type JUN-FOS pair
Reading: higher = stronger binding
Quantity: binding fitness
Parent: JUN, bZIP domain (human); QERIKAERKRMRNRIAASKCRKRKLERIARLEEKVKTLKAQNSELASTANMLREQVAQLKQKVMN; partner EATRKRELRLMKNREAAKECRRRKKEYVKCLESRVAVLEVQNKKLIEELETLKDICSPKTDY
Change = R53T; result = -1.49 natural log
Change = M51D; result = -1.34 natural log
Change = K39H; result = -1.52 natural log
Change = K36D; result = -1.36 natural log
Change = A57V; result = -1.43 natural log
Change = A40R; result = -1.37 natural log
Change = E44N; result = -1.4 natural log

Mixed results
Molecule = PhoQ, residues 284 288 289 292 302 303 TASMAF; target = PhoP, residues 12 14 15 18 19 IQSYL (Escherichia coli, UniProt P23836); test = Sort-seq, measured: YFP reporter; system = E. coli; setting = PhoQ-PhoP variant library, together with: 10 µM Mg2+; scale = reference: high Mg2+ state, higher = stronger signaling; quantity = fold induction; result = 1.07
